Experimental data of several laboratories.
Parts stem from different laboratories: compare values within a part only. Substitutions count along the parent as printed.

Series 1
Target: NFE2L2, bZIP domain (human)
Technique: DHFR protein complementation
Medium: yeast
Notes: single substitutions, most at no-binding floor
Reference: wild-type JUN-FOS pair
Direction: higher = stronger binding
Starting sequence: JUN, bZIP domain (human); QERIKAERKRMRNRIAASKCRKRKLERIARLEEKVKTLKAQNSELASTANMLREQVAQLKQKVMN; partner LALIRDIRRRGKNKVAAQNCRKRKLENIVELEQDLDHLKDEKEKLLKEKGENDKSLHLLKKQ
`L52Q` gave a binding fitness of -1.54 natural log.
For `K39E`, the binding fitness was -1.15 natural log.
With `K39Y` the binding fitness was -1.52 natural log.
For `A29N`, the binding fitness was -1.41 natural log.
`V56G` has a binding fitness of -1.52 natural log.
For `K36W`, the binding fitness was -1.49 natural log.
For `A40T`, the binding fitness was -1.42 natural log.
`S47D` gave a binding fitness of -1.17 natural log.
`Q55I` gave a binding fitness of -1.45 natural log.
With `I28M` the binding fitness was -1.58 natural log.
For `V35T`, the binding fitness was -1.49 natural log.
`Q41W` has a binding fitness of -1.44 natural log.
`E44K` has a binding fitness of -1.58 natural log.
For `R30V`, the binding fitness was -1.42 natural log.
With `A40H` the binding fitness was -1.5 natural log.
`K36R` has a binding fitness of -1.48 natural log.
For `L38C`, the binding fitness was -1.46 natural log.
The binding fitness of `R30W` is reported as -1.31 natural log.
For `S43E`, the binding fitness was -1.33 natural log.
`E32F` gave a binding fitness of -1.53 natural log.
With `S47H` the binding fitness was -1.5 natural log.
With `S47I` the binding fitness was -1.42 natural log.
`K39D` gave a binding fitness of -1.53 natural log.
For `A46G`, the binding fitness was -1.36 natural log.
`T37L` has a binding fitness of -1.5 natural log.

Series 2
Target: Sal-like protein 4, full length isoform B (SALL4, Homo sapiens, UniProt Q9UJQ4-2, residues 1-616)
Technique: universal PBM
Form: double-stranded DNA, one strand shown
Medium: in vitro
Tested at: not given
Notes: 8-mer, flanks averaged, mean of replicates
Direction: higher = stronger binding
`CTTGACCA` has an E-score of 0.014.
The E-score of `CACTGTGC` is reported as -0.108.
The E-score of `CTATTGTC` is reported as 0.0277.
With `ACTAACCG` the E-score was -0.0597.
For `GGCGCGCA`, the E-score was -0.125.
`TGAGTCCA` has an E-score of -0.0291.
`CCAGGTAA` gave an E-score of -0.0255.
`TGTAACAA` gave an E-score of 0.179.
`CGCCGTTC` gave an E-score of -0.182.
`AGGTGTAA` gave an E-score of -0.00462.
The E-score of `AGAGTAAC` is reported as -0.111.
`CGGCACAA` gave an E-score of -0.179.
`CATCCTAC` gave an E-score of -0.0233.
The E-score of `CGCCGGCA` is reported as -0.29.
`AGTCGTTC` has an E-score of -0.0832.
With `CCCGCGGA` the E-score was -0.238.
`ATTAAGAG` has an E-score of 0.197.
For `GCCCGTAC`, the E-score was -0.163.
`TAGTGGGA` gave an E-score of -0.0917.

Series 3
Target: Prothrombin, mature alpha-thrombin (F2, Homo sapiens, UniProt P00734)
Technique: aptamer microarray, sandwich
Form: DNA with 2'F-ANA
Medium: in vitro
Tested at: 200 nM
Notes: whole 15-mer aptamer, many near background
Together with: Cy3 exosite-II aptamer, 400 nM
Direction: higher = stronger binding
Strand: GGTTGGTGTGGTTGG
`2'F-ANA at 1 3 7 10 12 14`: “mean fluorescence intensity” 63.3 a.u.
`2'F-ANA at 1 3 4 6 7 8 9 11 13`: “mean fluorescence intensity” 135 a.u.
Under “mean fluorescence intensity”, `2'F-ANA at 1 2 4 5 10 11 12 14 15` is recorded as 52.4 a.u.
Under “mean fluorescence intensity”, `2'F-ANA at 1 2 3 4 11 15` is recorded as 162 a.u.
Under “mean fluorescence intensity”, `2'F-ANA at 1 4 9 10 15` is recorded as 61.2 a.u.
`2'F-ANA at 4 5 8 9 10 11 15`: “mean fluorescence intensity” 116 a.u.
Under “mean fluorescence intensity”, `2'F-ANA at 2 3 5 7 12 13 15` is recorded as 146 a.u.
`2'F-ANA at 1 2 4 6 7 8 10 11 12 13`: “mean fluorescence intensity” 72.6 a.u.
`2'F-ANA at 1 2 7 9 10 11 13 15`: “mean fluorescence intensity” 53.1 a.u.
`2'F-ANA at 1 2 3 4 5 6 11 13 14` — result for “mean fluorescence intensity”: 45.7 a.u.
`2'F-ANA at 2 3 6 7 9 15` — result for “mean fluorescence intensity”: 587 a.u.
Under “mean fluorescence intensity”, `2'F-ANA at 3 4 5 7 9 10` is recorded as 55.7 a.u.
`2'F-ANA at 2 8 9 11 15` — result for “mean fluorescence intensity”: 406 a.u.
Under “mean fluorescence intensity”, `2'F-ANA at 1 5 6 7 11 13 14` is recorded as 56.3 a.u.
`2'F-ANA at 3 4 5 7 9 12 13 14` — result for “mean fluorescence intensity”: 120 a.u.
`2'F-ANA at 2 7 8` — result for “mean fluorescence intensity”: 596 a.u.
`2'F-ANA at 1 5 6 10 11 12 15`: “mean fluorescence intensity” 82.5 a.u.
Under “mean fluorescence intensity”, `2'F-ANA at 2 5 6 7 8 11 14 15` is recorded as 47.8 a.u.
`2'F-ANA at 5 6 7 8 9 11 12` — result for “mean fluorescence intensity”: 119 a.u.
Under “mean fluorescence intensity”, `2'F-ANA at 1 3 4 7 9 10 12 13 15` is recorded as 77.3 a.u.
`2'F-ANA at 1 4 5 6 9 11 12 15`: “mean fluorescence intensity” 77.2 a.u.
Under “mean fluorescence intensity”, `2'F-ANA at 1 2 3 5 7 8 13 15` is recorded as 54.8 a.u.

Series 4
Target: RING finger protein unkempt homolog, zinc fingers 1-6, GST-SBP tag (UNK, Homo sapiens, UniProt Q9C0B0, residues 30-357)
Technique: RNA Bind-n-Seq
Form: RNA
Medium: in vitro
Tested at: not given
Notes: RNA with constant flanks, human and mouse sites, ends assumed
Reference: input RNA pool
Direction: higher = stronger binding
Target sequence (chain): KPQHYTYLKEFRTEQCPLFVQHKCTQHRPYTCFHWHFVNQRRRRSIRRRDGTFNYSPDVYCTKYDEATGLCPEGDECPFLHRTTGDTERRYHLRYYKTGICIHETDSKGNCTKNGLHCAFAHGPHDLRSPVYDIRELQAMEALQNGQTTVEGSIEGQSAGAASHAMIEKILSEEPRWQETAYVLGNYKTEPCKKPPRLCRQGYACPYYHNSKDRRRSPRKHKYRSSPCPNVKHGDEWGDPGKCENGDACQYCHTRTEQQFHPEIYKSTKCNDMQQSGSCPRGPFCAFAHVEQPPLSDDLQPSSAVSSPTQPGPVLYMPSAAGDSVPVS
With `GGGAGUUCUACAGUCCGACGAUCGUUUCUUUCCUGAAAGAAGUAGAAUCUCCUUAUGAGGUCCAUGAUUAUAUCAGGGCCUAUUUAGGAGAUACUUCUGAGGCCAAGGAGUUUGCCAAGCAGUUCCUUGAGCGCCGUGCCAAACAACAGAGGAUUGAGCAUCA` the bound/input enrichment was 0.151 ratio.
For `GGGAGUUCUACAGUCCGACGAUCCUCAAACAGGAAGCCAACACCGAGCCGCGGAAACGGUUUCACUUGCUGUCUCGCCUUCGAAAAGCCGUGAAGCAUGCAGAGGAACUGGAGCGCUUGUGUGAGAGCAACCGGGUGGAUGCCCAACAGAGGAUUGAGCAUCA`, the bound/input enrichment was 0.105 ratio.
With `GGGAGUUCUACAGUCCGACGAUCCCUGAAAAUGUCUAUAGUGUGCACUUCGAAAAAGAACAUAAAGCUGAGAAAGUCCCAGCAGUAGCCAACUACAUUAUGAAAAUACACAAUUUUACUAGCAAAUGCCUCUACUGUAAUCGCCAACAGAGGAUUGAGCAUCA` the bound/input enrichment was 8.36 ratio.
With `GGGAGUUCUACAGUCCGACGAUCGCAAAACCACCCAAAGGAGCACAUGUGGAAGUUUAAACUACAAAGUUAUUUCUUCAUCUUGACCUGUUUUUUUAAAUGUAAACUUUUAAGGACUUGAGAUAACUAAUUUGUUUAUAUACACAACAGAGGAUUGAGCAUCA` the bound/input enrichment was 0.208 ratio.
`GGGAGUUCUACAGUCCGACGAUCACACUCAAAGUGGCUGAUUUCGGCCUAAGUAAAGUUUGCUCAGCAUCUGGGCAGAACCCAGAAGAACCUGUCAGUGUAAACAAGUGUUUCCUUUCCACGGCAUGCGGGACGGACUUCUACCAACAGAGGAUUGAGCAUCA` has a bound/input enrichment of 0.12 ratio.
`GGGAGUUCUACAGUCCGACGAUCCUCCUUUCCCAUGCCCGUGGGCAUAAGGAGAAAGGGGUGGUAAUGCAAUGCUCCCACUUAAUUUUAAAGCCAGUCCCAGCAGAUCAAAUGAUAGUUUCUCCGUCAAGCAAUACUUCCACUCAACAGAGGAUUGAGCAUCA` has a bound/input enrichment of 0.532 ratio.
`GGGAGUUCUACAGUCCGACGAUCGCACCAAAGUAUCAGAUAGGAGAGAGAAUCCGAGUCAUCCUGGACAUGGAGGAUAAGACUUUAGCUUUUGAGCGUGGGUAUGAGUUCCUGGGGGUUGCCUUUCGAGGACUUCCAAAAGCCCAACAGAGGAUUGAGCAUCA` gave a bound/input enrichment of 0.237 ratio.
With `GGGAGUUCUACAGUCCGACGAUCGUGAACAUAACCAAAGGCAGAGGAGACAGAUCCUCUCUGAAAGUGGUGAAGGCGGCAGCCCAGGUCUUGAAUACAUUAUGGCAGUACCGGGACCUCCGGAGCAUUUACAAAAAGGAUGGGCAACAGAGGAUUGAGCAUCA` the bound/input enrichment was 0.387 ratio.
The bound/input enrichment of `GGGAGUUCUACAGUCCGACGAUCUUCAUAGAGAUGAGUGUUGAGCAGGAGAUUCUGGUGACUGGGAUAAAGGUUGUGGAUCUGCUGGCCCCAUACGCCAAGGGUGGGAAAAUCGGACUCUUUGGAGGUGCUGGCGUUGGAAAGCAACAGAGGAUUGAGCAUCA` is reported as 0.503 ratio.
With `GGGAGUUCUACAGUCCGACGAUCGCCUCUCGCUGGGGUCUUACGCUACAGACUUAUGUGCAGCUCACCAUGCUGGACAGGCAUACUCGUCCUCAGGUGUCAUCUGUACGGUUGAUGGAGAGGUCGAUUCACAGCGCAAGAUACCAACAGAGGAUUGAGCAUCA` the bound/input enrichment was 0.0979 ratio.
The bound/input enrichment of `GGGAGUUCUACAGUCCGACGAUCGAAUUUGGAGACUUUGAUAUUAAAACUGUACUUCAGGAGAUUAAACGAGGAAAAAGAAUGAAAUGUACACUUUGCAGUCAGCCUGGUGCUACUAUUGGAUGUGAAAUAAAAGCCUGUGUUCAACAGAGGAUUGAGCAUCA` is reported as 0.354 ratio.

Series 5
Target: Interferon regulatory factor 5, full length, phosphomimetic (IRF5, Homo sapiens, UniProt Q13568-2, residues 1-514, K96S/S451D/S453D/S456D/S462D)
Technique: protein-binding microarray
Form: double-stranded DNA, one strand shown
Medium: in vitro
Tested at: 250 nM
Notes: 60-bp whole probe
Together with: salmon DNA 0.4 mg/ml
Reference: random background probes
Direction: higher = stronger binding
All sequences stand within: GCCTAGCAC … GTCTTGATTCGCTTGACGCTGCTG
For `TCATATTTAAGAACTATGACTGTGCTA`, the log fluorescence was 0.419 z-score.
`GATGGCCTCTTGCTCAGCCCGTGCTAG` gave a log fluorescence of -0.807 z-score.
`TAATTTCCATTTTCTAAATGCGTGCTA` gave a log fluorescence of 2.07 z-score.
With `TTAGGCCTGGACTATCGGTTAGTGCTA` the log fluorescence was 4.79 z-score.
With `TTAGGACTGGAGTTTCGGTTAGTGCTA` the log fluorescence was 9.26 z-score.
With `AGAGATGTGGGACTCACCTAGTGCTAG` the log fluorescence was -0.464 z-score.
`TTAGGTTTCATTCTCCTTTAGTGCTAG` has a log fluorescence of 3.32 z-score.
`GACGGTATCTGTATCGGGACGTGCTAG` gave a log fluorescence of 1.71 z-score.
With `TAAGGTTTCGGGTATCGGTTAGTGCTA` the log fluorescence was 8.57 z-score.
With `AGAGTAAATTAAGTTAGAACGTGCTAG` the log fluorescence was -0.025 z-score.
`TCACATATGTTTTTCATACTGTGCTAG` gave a log fluorescence of 0.872 z-score.
With `GACGTTATCGGGTATCGAGACGTGCTA` the log fluorescence was 3.48 z-score.
The log fluorescence of `TCAGATTTCGGGTATCGATTAGTGCTA` is reported as 7.17 z-score.
`CACGGTATCGGTCTCGGGACGTGCTAG` has a log fluorescence of 4.67 z-score.
For `GACGAACTGAGTTTGGAGACGTGCTAG`, the log fluorescence was -0.372 z-score.
For `TTAGGTATCGGGTATCGGCTAGTGCTA`, the log fluorescence was 4.57 z-score.
`ATATATATGAATATATATTAGTGCTAG` has a log fluorescence of 0.554 z-score.
`GCCGATTTCAGTTTCGAGACGTGCTAG` has a log fluorescence of 7.09 z-score.
With `TTAGGTCTCGGTAGCGGTTAGTGCTAG` the log fluorescence was 0.638 z-score.
`GACAGTTTCGGGACTGGGGACGTGCTA` has a log fluorescence of 7.71 z-score.
With `GACGAACTGGGGACAGGAGACGTGCTA` the log fluorescence was -0.274 z-score.
With `TCATTTCTCATTCGTCATACTGTGCTA` the log fluorescence was 1.58 z-score.
With `TTAGATTTCACTCTCGATTAGTGCTAG` the log fluorescence was 3.86 z-score.
For `GACGGTCTCCTTTTCCTGAGGTGCTAG`, the log fluorescence was 0.0533 z-score.
